# Assay results pooled from the literature.
# Lines come from different studies, so protocols differ. Numbers after ± are the reported error.
# TTR: Transthyretin (TTR, Homo sapiens, UniProt P02766)
# Chain of UniProt Q9VK33 (whole entry, looked up): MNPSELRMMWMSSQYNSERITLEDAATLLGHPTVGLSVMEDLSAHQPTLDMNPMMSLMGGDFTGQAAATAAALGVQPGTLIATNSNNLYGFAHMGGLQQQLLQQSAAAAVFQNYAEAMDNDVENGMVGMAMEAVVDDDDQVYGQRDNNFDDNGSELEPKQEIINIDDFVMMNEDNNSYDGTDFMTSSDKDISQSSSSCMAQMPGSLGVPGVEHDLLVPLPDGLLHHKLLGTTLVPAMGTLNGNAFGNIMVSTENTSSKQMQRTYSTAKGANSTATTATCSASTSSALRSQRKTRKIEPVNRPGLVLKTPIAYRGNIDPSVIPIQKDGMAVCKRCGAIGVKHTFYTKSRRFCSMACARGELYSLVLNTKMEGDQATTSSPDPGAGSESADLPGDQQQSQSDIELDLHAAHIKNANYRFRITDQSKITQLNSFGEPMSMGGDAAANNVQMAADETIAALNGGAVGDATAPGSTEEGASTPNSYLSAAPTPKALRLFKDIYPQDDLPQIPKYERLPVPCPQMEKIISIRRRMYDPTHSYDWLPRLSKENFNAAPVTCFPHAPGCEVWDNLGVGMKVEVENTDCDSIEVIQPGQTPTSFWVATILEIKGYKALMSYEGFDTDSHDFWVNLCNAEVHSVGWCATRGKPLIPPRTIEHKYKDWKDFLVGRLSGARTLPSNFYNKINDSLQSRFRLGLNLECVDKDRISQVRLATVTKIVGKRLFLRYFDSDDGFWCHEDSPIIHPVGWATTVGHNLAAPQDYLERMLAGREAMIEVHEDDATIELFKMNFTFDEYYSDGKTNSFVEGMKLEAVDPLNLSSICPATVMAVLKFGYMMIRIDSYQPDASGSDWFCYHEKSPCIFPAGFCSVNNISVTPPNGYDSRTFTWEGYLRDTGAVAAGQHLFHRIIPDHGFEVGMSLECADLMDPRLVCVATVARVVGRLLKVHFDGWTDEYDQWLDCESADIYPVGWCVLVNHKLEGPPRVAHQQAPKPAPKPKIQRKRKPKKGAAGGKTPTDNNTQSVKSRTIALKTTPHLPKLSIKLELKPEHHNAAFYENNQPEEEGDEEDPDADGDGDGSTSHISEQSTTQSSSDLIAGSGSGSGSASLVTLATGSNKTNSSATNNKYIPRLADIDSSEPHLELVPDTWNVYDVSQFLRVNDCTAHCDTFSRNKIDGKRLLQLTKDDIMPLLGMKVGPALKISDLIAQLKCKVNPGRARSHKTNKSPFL
Structure (SMILES),target or system,test,setting,endpoint,result
C#CCCCOc1cc(OCCCc2c(C)n[nH]c2C)cc(C(=O)O)c1,TTR,binding,,Kd,0.042 µM
CC[C@H](C)[C@H](NC(=O)[C@H](CCCCN)NC(=O)[C@H](CCC(N)=O)NC(=O)[C@H](Cc1ccccc1)NC(=O)[C@@H](NC(=O)[C@H](CCCCN)NC(=O)[C@H](CCCCN)NC(=O)[C@H](CC(C)C)NC(=O)[C@H](C)NC(=O)[C@H](CC(N)=O)NC(=O)[C@@H](N)CC(C)C)C(C)C)C(=O)N[C@@H](Cc1c[nH]cn1)C(N)=O,Gram-positive and Gram-negative bacteria,,,geometric mean MIC,7.34 µM
CC(C)[C@H](NC(=O)CNC(=O)CNC(=O)[C@@H](NC(=O)[C@H](C)NC(=O)[C@@H]1CCCN1C(=O)[C@H](C)NC(=O)[C@@H](N)CO)[C@@H](C)O)C(=O)N[C@@H](CCCC[N+](C)(C)C)C(=O)N[C@@H](CCCCN)C(=O)N1CCC[C@H]1C(=O)N[C@@H](Cc1c[nH]cn1)C(=O)N[C@@H](CCCNC(=N)N)C(=O)N[C@@H](Cc1ccc(O)cc1)C(=O)N[C@@H](CCCNC(=N)N)C(=O)N1CCC[C@H]1C(=O)NCC(N)=O,"Polycomb protein Sfmbt (Sfmbt, Drosophila melanogaster, UniProt Q9VK33)","binding, ITC",Drosophila melanogaster protein,Kd,> 1000 µM
CC(C)CC(NC(=O)OCc1ccccc1)C(=O)Nc1ccc(C2CC2N)cc1 (centres unmarked),NB-4 APL cells,,,IC50,46.7 ± 6.2 µM
CC[C@H](C)[C@H](NC(=O)[C@H](Cc1ccc(O)cc1)NC(=O)[C@@H]1CCCN1C(=O)[C@H](CCCNC(=N)N)NC(=O)[C@H](CCCNC(=N)N)NC(=O)[C@@H]1CCCN1C(=O)[C@H](CCCCN)NC(=O)[C@H](CC(N)=O)NC(=O)[C@H](CCC(=O)O)NC(=O)[C@H](Cc1ccc(O)cc1)NC(=O)[C@H](CC(C)C)NC(=O)[C@H](CCC(=O)O)NC(=O)CCOCCOCCOCCn1cc(CCCOc2cc(OCCCc3c(C)n[nH]c3C)cc(C(=O)O)c2)nn1)C(=O)N[C@@H](CC(C)C)C(=O)O,TTR,binding,,Kd,0.46 µM

# For quick reference, copied from above:
Structure (SMILES),target or system,test,setting,endpoint,result
C#CCCCOc1cc(OCCCc2c(C)n[nH]c2C)cc(C(=O)O)c1,TTR,binding,,Kd,0.042 µM
